{"data": "Assay results collected from several papers", "note": "Parts stem from different laboratories: compare values within a part only. Substitutions count along the parent as printed."}
{"data": "Sample 1", "target": "Interferon regulatory factor 5, full length, phosphomimetic (IRF5, Homo sapiens, UniProt Q13568-2, residues 1-514, K96S/S451D/S453D/S456D/S462D)", "method": "protein-binding microarray", "form": "double-stranded DNA, one strand shown", "matrix": "in vitro", "tested at": "250 nM", "notes": "60-bp whole probe", "together with": "salmon DNA 0.4 mg/ml", "baseline": "random background probes", "direction": "higher = stronger binding", "constant ends, left off below": "GCCTAGCAC … GTCTTGATTCGCTTGACGCTGCTG"}
{"Strand": "GACGATATCGGGACTGGGGACGTGCTA", "log fluorescence": "0.96 z-score"}
{"Strand": "GACGATTTCAGTTTCGACACGTGCTAG", "log fluorescence": "7.99 z-score"}
{"Strand": "TTAGGTTTTGGGACTGGGTTAGTGCTA", "log fluorescence": "0.397 z-score"}
{"Strand": "TTAGTTTTCGGGTTTCGATTAGTGCTA", "log fluorescence": "8.78 z-score"}
{"Strand": "TCCATTTTCTAAATGCCCTAGTGCTAG", "log fluorescence": "0.937 z-score"}
{"Strand": "TCTGTTTTCGCTTTCTTTAAGTGCTAG", "log fluorescence": "7.4 z-score"}
{"Strand": "TTTTTTTTCATCATTGCCTGGTGCTAG", "log fluorescence": "1.95 z-score"}
{"Strand": "CTGCTTGAAACTCTTACCCCGTGCTAG", "log fluorescence": "-0.19 z-score"}
{"Strand": "GCCGATTTCAGTTCCGAGACGTGCTAG", "log fluorescence": "1.71 z-score"}
{"Strand": "GACGGACTGGCCACTGGGGACGTGCTA", "log fluorescence": "-0.502 z-score"}
{"Strand": "TCATCTCCCATTCTGAAACTGTGCTAG", "log fluorescence": "0.432 z-score"}
{"Strand": "TTAGGTTTCGGTTACGGTTAGTGCTAG", "log fluorescence": "11 z-score"}
{"Strand": "CACGGTTTCGGTCTCGGGACGTGCTAG", "log fluorescence": "9.23 z-score"}
{"Strand": "TTAGGTATCGTACTGGGTTAGTGCTAG", "log fluorescence": "0.978 z-score"}
{"Strand": "TTAGATCTCAGTATCAATTAGTGCTAG", "log fluorescence": "1.34 z-score"}
{"Strand": "TCATTGTTGTTTTTTGGACTGTGCTAG", "log fluorescence": "0.707 z-score"}
{"Strand": "TATGTTTTTCATTTTGTTCAGTGCTAG", "log fluorescence": "1.99 z-score"}
{"data": "Sample 2", "target": "Histone acetyltransferase KAT6A, winged helix 2, GST fusion (KAT6A, Homo sapiens, UniProt Q92794, residues 85-181)", "method": "protein binding microarray", "form": "double-stranded DNA, one strand shown", "matrix": "in vitro", "tested at": "not given", "notes": "8-mer, flanks averaged, mean of 2 arrays, mostly near background", "baseline": "not given", "direction": "higher = stronger binding", "Residues (chain)": "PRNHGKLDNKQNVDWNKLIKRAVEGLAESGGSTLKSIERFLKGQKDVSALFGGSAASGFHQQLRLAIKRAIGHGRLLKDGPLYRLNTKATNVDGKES"}
{"Strand": "ACACTACA", "E-score": 0.141}
{"Strand": "AATGTACG", "E-score": -0.161}
{"Strand": "ATCGACAT", "E-score": 0.0828}
{"Strand": "CCTTGAAA", "E-score": -0.0833}
{"Strand": "ACTTGTTA", "E-score": -0.105}
{"Strand": "GGTTGTTA", "E-score": -0.0396}
{"Strand": "CAAGCCCC", "E-score": -0.0841}
{"Strand": "AGATTGCT", "E-score": -0.00961}
{"Strand": "AGTATCAC", "E-score": -0.104}
{"Strand": "AATTGAAA", "E-score": -0.05}
{"Strand": "CAGCACCA", "E-score": -0.0921}
{"Strand": "TCGGCCAA", "E-score": 0.201}
{"Strand": "ATGTGTCG", "E-score": -0.11}
{"Strand": "CGAGTGAG", "E-score": 0.144}
{"Strand": "ATCCTGTC", "E-score": 0.0671}
{"Strand": "CAACCTTG", "E-score": 0.0461}
{"Strand": "ACCGAGTA", "E-score": -0.0167}
{"Strand": "AGGACGAT", "E-score": -0.192}
{"Strand": "CAAGCCTA", "E-score": 0.118}
{"Strand": "AGATGAAA", "E-score": 0.0703}
{"Strand": "CTTGTACC", "E-score": -0.172}
{"Strand": "ACAACTAG", "E-score": -0.194}
{"Strand": "CGAACAAC", "E-score": 0.0406}
{"data": "Sample 3", "target": "CCNF, cyclin fold, Cln2 fusion (human)", "method": "yeast growth competition, sequencing", "matrix": "yeast", "notes": "strong parent motif", "baseline": "not given", "direction": "higher = stronger binding", "starting sequence": "RRM2 docking peptide (human); SKTARRIFQEPTE"}
{"Variant": "SKTARRIFQAPTE [E10A]", "normalised enrichment score": 2.74}
{"Variant": "SKAARRIFQEPTE [T3A]", "normalised enrichment score": 1.9}
{"Variant": "SKTARRIFQEATE [P11A]", "normalised enrichment score": 4.05}
{"Variant": "SKTARRIFQEPAE [T12A]", "normalised enrichment score": 4.73}
{"Variant": "SKTARRAFQEPTE [I7A]", "normalised enrichment score": 0.481}
{"Variant": "SKTARRIAQEPTE [F8A]", "normalised enrichment score": 0.22}
{"data": "Mixed results"}
{"Substance": "PhoQ, residues 284 288 289 292 302 303 TLASMF", "target": "PhoP, residues 12 14 15 18 19 HEGLL (Escherichia coli, UniProt P23836)", "test": "Sort-seq, refers to: YFP reporter", "test system": "E. coli", "setting": "PhoQ-PhoP variant library, together with: 10 µM Mg2+", "scale": "baseline: high Mg2+ state, higher = stronger signaling", "endpoint": "fold induction", "value": 12.8}
